Experimental data pooled from the literature.
Parts stem from different laboratories: compare values within a part only.

Series 1
Target: Sal-like protein 4, full length isoform A (SALL4, Homo sapiens, UniProt Q9UJQ4, residues 1-1053)
Chain of UniProt Q9UJQ4 (whole entry, looked up): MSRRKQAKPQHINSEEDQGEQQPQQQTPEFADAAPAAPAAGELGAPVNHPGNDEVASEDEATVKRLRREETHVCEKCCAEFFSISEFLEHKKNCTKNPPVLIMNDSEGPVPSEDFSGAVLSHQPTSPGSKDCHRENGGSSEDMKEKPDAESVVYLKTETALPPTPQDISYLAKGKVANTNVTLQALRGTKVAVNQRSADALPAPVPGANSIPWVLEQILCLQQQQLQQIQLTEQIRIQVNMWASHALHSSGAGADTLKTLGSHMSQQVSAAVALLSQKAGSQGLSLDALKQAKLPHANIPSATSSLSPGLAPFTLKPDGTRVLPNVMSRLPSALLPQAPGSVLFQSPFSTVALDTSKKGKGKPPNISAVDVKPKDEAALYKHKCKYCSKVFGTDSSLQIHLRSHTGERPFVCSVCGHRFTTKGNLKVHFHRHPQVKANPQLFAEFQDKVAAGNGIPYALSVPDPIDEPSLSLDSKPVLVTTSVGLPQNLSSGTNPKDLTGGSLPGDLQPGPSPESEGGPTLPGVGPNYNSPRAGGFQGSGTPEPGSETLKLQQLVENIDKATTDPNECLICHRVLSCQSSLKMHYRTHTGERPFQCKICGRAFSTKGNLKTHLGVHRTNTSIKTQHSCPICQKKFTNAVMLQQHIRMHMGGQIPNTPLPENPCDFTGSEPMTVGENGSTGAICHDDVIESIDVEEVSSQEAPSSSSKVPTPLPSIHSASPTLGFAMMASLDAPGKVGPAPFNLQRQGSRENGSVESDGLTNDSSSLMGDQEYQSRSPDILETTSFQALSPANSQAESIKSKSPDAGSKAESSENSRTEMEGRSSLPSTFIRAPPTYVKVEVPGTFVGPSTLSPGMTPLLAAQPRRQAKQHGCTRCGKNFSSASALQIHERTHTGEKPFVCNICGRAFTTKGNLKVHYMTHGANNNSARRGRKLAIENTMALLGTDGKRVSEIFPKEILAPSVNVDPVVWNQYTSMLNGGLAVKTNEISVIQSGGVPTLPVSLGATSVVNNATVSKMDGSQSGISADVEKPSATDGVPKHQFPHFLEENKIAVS
Method: universal PBM
Form: double-stranded DNA, one strand shown
Medium: in vitro
Tested at: 600 nM
Notes: 8-mer, flanks averaged, mean of replicates
Reading: higher = stronger binding
Measurement: E-score
ACGTGGCA: -0.214
TCGGTCAA: 0.0289
CAAATGGC: -0.0838
TAACTGAA: 0.137
AACGTACT: 0.0438
TGCATGCA: 0.185
AAAGGTGA: 0.0899
CCTGGGAA: -0.224
GCGTTATA: 0.126
AGACTTCG: -0.0357
GAGAAAGC: -0.0367
TCGCGACA: -0.0432
GAATGGTA: 0.16
TGATGGAA: 0.197
CGACGGTC: -0.338
CTCGCTGC: -0.0612

Series 2
Target: Histone acetyltransferase KAT6A, winged helix 2, GST fusion (KAT6A, Homo sapiens, UniProt Q92794, residues 85-181)
Method: protein binding microarray
Form: double-stranded DNA, one strand shown
Medium: in vitro
Tested at: not given
Notes: 8-mer, flanks averaged, mean of 2 arrays, mostly near background
Reference: not given
Reading: higher = stronger binding
Measurement: E-score
Construct (chain): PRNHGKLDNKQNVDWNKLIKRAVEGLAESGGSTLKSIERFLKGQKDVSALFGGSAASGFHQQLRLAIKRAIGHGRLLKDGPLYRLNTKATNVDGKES
ATCATGAC: 0.0223
CTGCGAAG: -0.0269
ATGATCTC: 0.0603
CTGCGTTC: 0.168
GTGAGAGA: -0.101
CACCCCAG: -0.0821
CGCCCCAG: 0.139
CAGATGCC: -0.0799
GGGTCACA: 0.00948
GTTTTGAA: 0.189
AGCGAAAC: 0.167
AGACCCTC: -0.0391
CAGGCCGG: 0.0688
AAGAGTAA: -0.043
AGCGTCGG: 0.0648
CGTGATGA: -0.144
TGCCTGAA: -0.0591

Series 3
Target: PABPC1L2, full length, GST fusion (mouse, UniProt A0ABA7IW68)
Method: RNAcompete
Form: RNA
Medium: in vitro
Tested at: 20 nM
Notes: 7-mer, probes averaged, single round
Reference: mean of 7-mers
Reading: higher = stronger binding
Measurement: 7-mer Z-score
Construct (chain): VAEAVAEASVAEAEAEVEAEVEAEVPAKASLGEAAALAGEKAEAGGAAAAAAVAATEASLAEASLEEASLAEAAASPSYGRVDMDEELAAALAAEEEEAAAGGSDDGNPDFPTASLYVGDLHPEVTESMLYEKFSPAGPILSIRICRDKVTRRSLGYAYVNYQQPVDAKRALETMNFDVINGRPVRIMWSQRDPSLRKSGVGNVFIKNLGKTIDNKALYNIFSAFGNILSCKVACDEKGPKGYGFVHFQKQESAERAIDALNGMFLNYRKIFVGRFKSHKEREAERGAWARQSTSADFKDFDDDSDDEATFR
UCCUCGA: -0.342
CUAUGGC: -0.19
UUUCUCG: -0.418
CUAGGUC: -0.104
GCAUGAA: 0.193
CGCAUUC: -0.373
UGCGAAU: -0.115
GUUCGUC: -0.51
GGAAGAC: 0.017
CGAGAGC: -0.0047
UCGUGGA: -0.0772
ACUAGAU: 0.0315
ACGGACG: 0.0352
CGGGUAA: 0.392
UAAGAUA: -0.193
CAGUAAC: -0.0446
ACUCCAU: -0.0772
AACCUCA: -0.0899
CUAGCUG: -0.171
GCCGACG: -0.18
CACUUUA: -0.012
UAAUGAU: -0.211

Series 4
Target: RING finger protein unkempt homolog, zinc fingers 1-6, GST-SBP tag (UNK, Homo sapiens, UniProt Q9C0B0, residues 30-357)
Method: RNA Bind-n-Seq
Form: RNA
Medium: in vitro
Tested at: not given
Notes: RNA with constant flanks, human-mouse chimeric sites, ends assumed
Reference: input RNA pool
Reading: higher = stronger binding
Measurement: bound/input enrichment
All sequences stand within: GGGAGUUCUACAGUCCGACGAUC … CAACAGAGGAUUGAGCAUCA
Construct (chain): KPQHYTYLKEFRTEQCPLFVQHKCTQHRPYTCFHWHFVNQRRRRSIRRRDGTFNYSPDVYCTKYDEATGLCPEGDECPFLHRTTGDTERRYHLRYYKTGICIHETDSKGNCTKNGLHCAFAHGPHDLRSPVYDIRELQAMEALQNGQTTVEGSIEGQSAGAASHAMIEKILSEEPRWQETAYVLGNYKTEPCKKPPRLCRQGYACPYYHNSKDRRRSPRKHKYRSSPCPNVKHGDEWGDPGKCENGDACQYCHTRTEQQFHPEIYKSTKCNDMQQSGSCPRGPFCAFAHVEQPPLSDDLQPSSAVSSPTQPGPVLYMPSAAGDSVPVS
CACAGAGCAGCACCUACCCCCUCCUCCUUUCCACACCUGCAAACUCUUUUACUUGGGCUGAAUAUUUAGUGUAAUUACAUCUCAGCUUUUGAGGGCUCCUGUGGCAAUUCCCGGAUUAAA: 1.11 ratio
AACUUCGUACAUAGAUUUCCCUUUGUAGCUGUUUCAAUUGGCUUCCUUGUGAAUAAAAAGAUAGAAUUUGGAAUUGUGUACAGCUGUGUGGAAGAUAAGAUGUACACCGGCAGGAAAGGG: 4.73 ratio
ACCUCCCCCUCCCGCCUCACCCCACCCCCGCUUUUUGGAAAGUUUUUGGCGUUUCUUUUCCUUCCCCAUACAAAGUGGUUUUUACCACCCCCGCAAGUGGGGCUUGAAGGGCUUGACGGA: 0.661 ratio
GUGACUGGUGUUAAGAUUUCCCCUCAGCAAAGAAGUGCAGUAGUCACCAUAAUUCCAUCUGUGGUGAAUGCCAAUCAGAUUGUGGAGCUGGUCCCAGACCUCAGUUUAGAUACUGGGACU: 0.241 ratio
GGACAUCUGUCAAAUUGUUAUGUUCCUGUGAAACAAGUGAACACUCUUCAUAUACUAAUCUGCUUGUACAUCUGUAUGAUAGAGAAAUGUAAAUAUGUUAAUCCAAGCAAUGUGUCACUU: 0.229 ratio
GUUGCCAGCUUCCGGUUCCGUUGGGCUCGGUUCUCUCCUGAGCUACGUGUCUCUACGCUCUCAAUCCGCCAUCCAACAAACAUGGAUCAGGUAAUGCUGCAGUUUGUUGAGCCAAGUCAG: 0.0882 ratio
GGGGAGAAACCUUACGAGUGUGUGCAGUGUGGGAAAUCCUACAGUCAGAGCUCAAACCUCUUCAGACAUCAGAGACGACACAAUGCAGAAAAACUUCUGAAUGUUGUGAAAGUUUAAGAA: 0.124 ratio
AAUGUGGAGUUGAGUUCCUUGGCCCGGCUUCCCAGCUUGAAUAAACUCCGGAAGUUGGAACUUAGUGACAAUAUAAUUUCUGGAGGCUUGGAAGUCCUGGCAGAGAAAUGUCCAAAUCUU: 0.298 ratio

Series 5
Target: Interferon regulatory factor 3, full length, phosphomimetic (IRF3, Homo sapiens, UniProt Q14653, residues 1-427, S386D/S396D/S398D/S402D/T404D/S405D)
Method: protein-binding microarray
Form: double-stranded DNA, one strand shown
Medium: in vitro
Tested at: 2540 nM top
Notes: 60-bp whole probe
Together with: salmon DNA 0.4 mg/ml
Reference: random background probes
Reading: higher = stronger binding
Measurement: fitted relative affinity
All sequences stand within: GCCTAGCAC … GTCTTGATTCGCTTGACGCTGCTG
Target sequence (chain): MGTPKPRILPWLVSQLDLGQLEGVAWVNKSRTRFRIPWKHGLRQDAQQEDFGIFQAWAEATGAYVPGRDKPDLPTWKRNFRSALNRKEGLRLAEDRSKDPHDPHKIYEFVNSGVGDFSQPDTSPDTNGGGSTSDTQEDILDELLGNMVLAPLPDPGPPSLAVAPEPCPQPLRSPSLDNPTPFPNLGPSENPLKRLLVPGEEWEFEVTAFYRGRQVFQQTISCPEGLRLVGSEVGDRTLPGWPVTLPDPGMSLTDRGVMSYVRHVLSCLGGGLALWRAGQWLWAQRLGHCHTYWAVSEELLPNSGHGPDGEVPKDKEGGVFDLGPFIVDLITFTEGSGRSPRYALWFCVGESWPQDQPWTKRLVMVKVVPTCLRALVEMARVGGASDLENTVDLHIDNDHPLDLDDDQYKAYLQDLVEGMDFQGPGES
TTAGAACTGAGTCACGATTAGTGCTAG: -0.315 z-score
TTCGGTTTCGGTCTCGGTTAGTGCTAG: 8.72 z-score
CATTTTCTAAATTCCCTAGTGTGCTAG: 4.06 z-score
TCTCTTTCCACTTGTCTTTTCGTGCTA: 3.16 z-score
TTAGGTATCCTTTTCCATTAGTGCTAG: 8.14 z-score
GACGATATCAGTCTCAAGACGTGCTAG: 1.04 z-score
GACGGTCTCCTTATCCTGATGTGCTAG: 2.78 z-score
GGAAATTCTCATTTCCAATTGTGCTAG: 2.35 z-score
GTCGGTATCGGGTTTCGGGACGTGCTA: 3.97 z-score
TTAGGTTTCGGTTACGGTTAGTGCTAG: 8.13 z-score
GATGGTCTCGGACTGGGGACGTGCTAG: -0.522 z-score
AAAATTTTAACCCTTATTCTGTGCTAG: 0.629 z-score
TCTCTGCTACCCTTTGAAAGTGTGCTA: 0.129 z-score
TTAGGTATAGGGTTTCGGTTAGTGCTA: 2.74 z-score
GACGGTATCGGACTGGGAACGTGCTAG: 1.52 z-score
TTAGGTCTCGCTATCGGTTAGTGCTAG: 0.471 z-score
GACGGTCTCGGACCGGGGACGTGCTAG: -0.0731 z-score
TCACCCCTCTCATTCCAACTGTGCTAG: 1.29 z-score
TTAGCACTGGGGTTTCGGTTAGTGCTA: 2.37 z-score

Further values, each from its own experiment
TLKGRRLVFDNQL  score relative, wild type, peptide (human cyclin A1; cyclin docking binding, deep mutational scanning; peptide, yeast cyclin A1-Cln2 system; direction not given): 0

Excerpt of the above (series 3):
GCCGACG: -0.18
CGAGAGC: -0.0047
GUUCGUC: -0.51
GGAAGAC: 0.017
ACUAGAU: 0.0315
UUUCUCG: -0.418
CGGGUAA: 0.392
